Published values of several laboratories.
Protocols differ between the studies behind these lines. ± gives the spread as reported.
Organism: Escherichia coli

magainin 2 — MIC (serial dilution; ATCC 12014; 24 h, 37 °C): > 100 mg/L
CC[C@H](C)[C@H](NC(=O)[C@H](Cc1ccc(O)cc1)NC(=O)[C@@H](NC(=O)[C@@H]1CCCN1C(=O)[C@H](CCCNC(=N)N)NC(=O)[C@H](CC(N)=O)NC(=O)[C@H](CC(N)=O)NC(=O)CN)C(C)C)C(=O)N1CCC[C@H]1C(=O)N[C@@H](CCC(N)=O)C(=O)N1CCC[C@H]1C(=O)N[C@@H](CCCNC(=N)N)C(=O)N1CCC[C@H]1C(=O)N1CCC[C@H]1C(=O)N[C@@H](Cc1c[nH]cn1)C(=O)N1CCC[C@H]1C(=O)N[C@@H](CCCNC(=N)N)C(=O)N[C@@H](CC(C)C)C(=O)O — MIC (broth microdilution; BW25113, 5% M9 medium): 0.384 ± 0.08 µM
CC[C@H](C)[C@H](NC(=O)[C@H](CCCNC(=N)N)NC(=O)[C@H](CC(C)C)NC(=O)[C@H](CCC(N)=O)NC(=O)[C@H](CCCCN)NC(=O)[C@H](CC(C)C)NC(=O)[C@H](CC(C)C)NC(=O)[C@H](CC(C)C)NC(=O)[C@@H](NC(=O)[C@H](CCCCN)NC(=O)[C@H](CC(=O)O)NC(=O)[C@H](C)NC(=O)[C@@H](NC(=O)[C@H](CCCCN)NC(=O)[C@H](CCCCN)NC(=O)[C@H](CC(=O)O)NC(=O)[C@@H](NC(=O)[C@@H](N)Cc1c[nH]cn1)C(C)C)C(C)C)C(C)C)C(=O)N[C@@H](CCSC)C(=O)N[C@@H](CCCNC(=N)N)C(=O)N[C@@H](CC(C)C)C(=O)N[C@@H](CC(C)C)C(=O)N[C@H](C(=O)N[C@@H](CCCNC(=N)N)C(=O)N[C@@H](CC(C)C)C(=O)O)[C@@H](C)O — MIC (broth microdilution; K12; 37 °C): > 81 µM
CC(C)C[C@H](NC(=O)[C@H](C)NC(=O)[C@H](CC(C)C)NC(=O)[C@@H](NC(=O)[C@H](CC(C)C)NC(=O)[C@H](Cc1c[nH]cn1)NC(=O)[C@H](CC(C)C)NC(=O)[C@@H](NC(=O)[C@@H](N)CO)[C@@H](C)O)C(C)C)C(=O)N[C@@H](CCCNC(=N)N)C(=O)NCC(=O)NCC(=O)O — MIC (DH5α; 37 °C, ≥90% viability decrease): > 100 µM
CC(C)C[C@H](NC(=O)[C@H](CCCNC(=N)N)NC(=O)[C@@H]1CCCN1C(=O)[C@H](CCCNC(=N)N)NC(=O)[C@@H]1CCCN1C(=O)[C@@H]1CCCN1C(=O)[C@H](CCCNC(=N)N)NC(=O)[C@@H]1CCCN1C(=O)[C@H](CCC(N)=O)NC(=O)[C@@H]1CCCN1C(=O)[C@H](CCCCN)NC(=O)[C@H](Cc1ccc(O)cc1)NC(=O)[C@@H](NC(=O)[C@@H]1CCCN1C(=O)[C@H](CCCNC(=N)N)NC(=O)[C@H](CC(N)=O)NC(=O)[C@H](CC(N)=O)NC(=O)CN)C(C)C)C(=O)O — MIC (JW0368 ΔsbmA; 18 h, 37 °C, 12.5% Mueller-Hinton broth): 0.096 ± 0.023 µM
CC[C@H](C)[C@H](NC(=O)[C@H](C)NC(=O)[C@H](CCCCN)NC(=O)[C@@H](NC(=O)[C@@H]1CCCN1C(=O)[C@@H](NC(=O)[C@H](CCCCN)NC(=O)[C@H](C)N)[C@@H](C)CC)[C@@H](C)CC)C(=O)N[C@@H](CCCCN)C(=O)N[C@H](C(=O)N[C@H](C(=O)NCC(=O)N[C@@H](CCCCN)C(=O)N[C@@H](C)C(=O)N[C@H](C(=O)NCC(=O)N[C@@H](CCCCN)C(=O)NCC(=O)N[C@@H](CC(C)C)C(=O)N[C@@H](CCCNC(=N)N)C(=O)N[C@@H](C)C(=O)N[C@H](C(=O)N[C@@H](CC(N)=O)C(=O)N[C@H](C(=O)N[C@@H](C)C(=O)N[C@@H](CO)C(=O)N[C@H](C(=O)N[C@@H](C)C(=O)N[C@@H](CC(N)=O)C(=O)N[C@@H](CC(=O)O)C(=O)N[C@H](C(=O)N[C@@H](Cc1ccccc1)C(=O)N[C@@H](CC(N)=O)C(=O)N[C@@H](Cc1ccccc1)C(=O)N[C@@H](CC(C)C)C(=O)N[C@@H](CCCCN)C(=O)N1CCC[C@H]1C(=O)N[C@@H](CCCCN)C(=O)N[C@@H](CCCCN)C(=O)N[C@@H](CCCNC(=N)N)C(=O)N[C@@H](CCCCN)C(=O)N[C@@H](Cc1c[nH]cn1)C(=O)O)C(C)C)[C@@H](C)O)[C@@H](C)CC)[C@@H](C)CC)C(C)C)C(C)C)[C@@H](C)O — MIC (bacterial growth; DH5α; 37 °C): 1 µM
CC[C@H](C)[C@H](NC(=O)[C@H](CCCNC(=N)N)NC(=O)[C@H](CCCCN)NC(=O)[C@H](CC(C)C)NC(=O)[C@H](Cc1ccccc1)NC(=O)[C@H](CCCNC(=N)N)NC(=O)[C@H](C)NC(=O)[C@@H](N)C(C)C)C(=O)N[C@H](C(=O)N[C@@H](CCCCN)C(=O)N[C@@H](C)C(=O)N[C@@H](CC(C)C)C(=O)N[C@@H](Cc1ccccc1)C(N)=O)[C@@H](C)CC — MIC (ATCC 25922; 1 h, 37 °C, non-dividing cells in PBS): 6.25 mg/L
CC[C@H](C)[C@H](NC(=O)[C@H](Cc1ccc(O)cc1)NC(=O)[C@@H](NC(=O)[C@@H]1CCCN1C(=O)[C@H](CCCCN)NC(=O)[C@H](CC(N)=O)NC(=O)[C@H](CC(N)=O)NC(=O)CN)C(C)C)C(=O)N1CCC[C@H]1C(=O)N[C@@H](CCC(N)=O)C(=O)N1CCC[C@H]1C(=O)N[C@@H](CCCNC(=N)N)C(=O)N1CCC[C@H]1C(=O)N1CCC[C@H]1C(=O)N[C@@H](CCCNC(=N)N)C(=O)N1CCC[C@H]1C(=O)N[C@@H](CCCNC(=N)N)C(=O)N[C@@H](CC(C)C)C(=O)O — MIC (JW0368 ΔsbmA; 18 h, 37 °C, 12.5% Mueller-Hinton broth): 0.384 ± 0.08 µM
CC[C@H](C)[C@H](NC(=O)[C@H](CC(=O)O)NC(=O)[C@H](Cc1ccccc1)NC(=O)[C@H](CC(C)C)NC(=O)CN)C(=O)N[C@H](C(=O)N[C@@H](CCCCN)C(=O)N[C@@H](CCCCN)C(=O)N[C@H](C(=O)N[C@H](C(=O)N[C@@H](CCCCN)C(=O)N[C@@H](CC(C)C)C(=O)N[C@@H](CC(C)C)C(=O)N[C@@H](CCCCN)C(N)=O)C(C)C)C(C)C)C(C)C — MIC (ATCC 25922, CAMHB; 18 h, 37 °C): > 20 µM
CC(C)C[C@H](NC(=O)[C@H](CCC(=O)O)NC(=O)[C@H](CCC(=O)O)NC(=O)[C@@H](NC(=O)[C@H](CCCNC(=N)N)NC(=O)[C@H](CCC(N)=O)NC(=O)[C@@H](N)CCCNC(=N)N)C(C)C)C(=O)N[C@@H](CO)C(=O)N[C@@H](CCCCN)C(=O)N[C@@H](Cc1ccccc1)C(=O)N[C@@H](CO)C(=O)N[C@@H](CCCCN)C(=O)N[C@@H](CCCCN)C(=O)NCC(=O)N[C@@H](C)C(=O)N[C@@H](C)C(=O)N[C@@H](C)C(=O)N[C@@H](CCCNC(=N)N)C(=O)N[C@@H](CCCNC(=N)N)C(=O)N[C@@H](CCCNC(=N)N)C(=O)N[C@@H](CCCCN)C(=O)O — MIC (broth microdilution; K12; 37 °C): > 84 µM
CC[C@H](C)[C@H](NC(=O)[C@H](CCCNC(=N)N)NC(=O)[C@H](CCCNC(=N)N)NC(=O)[C@@H]1CCCN1C(=O)[C@@H]1CCCN1C(=O)[C@H](CCCNC(=N)N)NC(=O)[C@@H]1CCCN1C(=O)[C@H](CCCNC(=N)N)NC(=O)[C@@H]1CCCN1C(=O)[C@H](CCCCN)NC(=O)[C@H](Cc1ccc(O)cc1)NC(=O)[C@@H]1CCCN1C(=O)[C@H](CCCNC(=N)N)NC(=O)[C@H](CCCCN)NC(=O)[C@H](CC(=O)O)NC(=O)[C@@H](N)C(C)C)C(=O)N[C@@H](Cc1ccc(O)cc1)C(=O)N[C@@H](CC(N)=O)C(=O)N[C@@H](CCCNC(=N)N)C(N)=O — MIC (bacterial growth; JW0013): 0.83 ± 0.42 mg/L
CC[C@H](C)[C@H](NC(=O)[C@@H]1CCCN1C(=O)[C@H](CCCCN)NC(=O)[C@@H]1CCCN1C(=O)[C@@H]1CCCN1C(=O)[C@@H](NC(=O)[C@@H]1CCCN1C(=O)[C@H](CCCNC(=N)N)NC(=O)[C@@H]1CCCN1C(=O)[C@H](CCCNC(=N)N)NC(=O)[C@H](Cc1ccc(O)cc1)NC(=O)[C@H](CO)NC(=O)CNC(=O)[C@H](CCCCN)NC(=O)[C@H](CC(=O)O)NC(=O)[C@@H](N)C(C)C)[C@@H](C)O)C(=O)N[C@@H](Cc1ccc(O)cc1)C(=O)N[C@@H](CC(N)=O)C(=O)N[C@@H](CCCNC(=N)N)C(=O)N[C@@H](CC(N)=O)C(=O)O — MIC (broth microdilution; BW25113 parental, Mueller-Hinton broth; 18 h, 37 °C): 0.037 ± 0.008 µM
CC[C@H](C)[C@H](NC(=O)[C@H](C)NC(=O)[C@H](CCCNC(=N)N)NC(=O)CNC(=O)[C@H](C)NC(=O)[C@H](CCC(=O)O)NC(=O)CNC(=O)[C@H](CC(=O)O)NC(=O)[C@H](Cc1ccc(O)cc1)NC(=O)[C@H](Cc1ccccc1)NC(=O)CNC(=O)[C@H](CCCCN)NC(=O)[C@H](CCCNC(=N)N)NC(=O)[C@H](CC(C)C)NC(=O)[C@H](CO)NC(=O)[C@H](CO)NC(=O)[C@H](Cc1c[nH]c2ccccc12)NC(=O)[C@H](Cc1ccccc1)NC(=O)[C@H](CC(N)=O)NC(=O)[C@H](CCCCN)NC(=O)[C@H](Cc1c[nH]c2ccccc12)NC(=O)[C@H](C)NC(=O)CN)C(=O)N[C@@H](CCCNC(=N)N)C(=O)N[C@@H](CCCNC(=N)N)C(=O)O — MIC (broth microdilution; K12; 37 °C): > 38.9 µM
CC[C@H](C)[C@H](NC(=O)[C@H](Cc1c[nH]c2ccccc12)NC(=O)[C@@H](N)CCCNC(=N)N)C(=O)N[C@@H](CCCNC(=N)N)C(=O)N[C@@H](Cc1c[nH]c2ccccc12)C(=O)N[C@H](C(=O)N[C@@H](Cc1c[nH]c2ccccc12)C(=O)N[C@@H](CCCNC(=N)N)C(=O)N[C@@H](CCCCN)C(=O)N[C@@H](CCCCN)C(=O)N[C@@H](CC(C)C)C(=O)N[C@@H](CCCNC(=N)N)C(N)=O)C(C)C — MIC (broth microdilution; ATCC 25922, LB medium; 16 to 20 h, 37 °C): 25 to 50 mg/L
vasoactive intestinal peptide — MIC (ATCC 25922): 6.9 µM
CC(C)C[C@H](NC(=O)[C@H](Cc1c[nH]c2ccccc12)NC(=O)[C@H](CCCNC(=N)N)NC(=O)[C@H](CC(C)C)NC(=O)[C@H](CCCNC(=N)N)NC(=O)[C@H](Cc1c[nH]c2ccccc12)NC(=O)[C@H](Cc1c[nH]c2ccccc12)NC(=O)[C@H](CC(C)C)NC(=O)[C@H](CCCCN)NC(=O)[C@H](Cc1c[nH]c2ccccc12)NC(=O)[C@@H](NC(=O)[C@@H](N)CC(C)C)C(C)C)C(=O)N[C@@H](CCCCN)C(N)=O — MIC (ATCC 25922; 1 h, 37 °C, non-dividing cells in PBS): ≥ 100 mg/L
CO/N=C(\C(=O)N[C@@H]1C(=O)N2C(C(=O)O)=C(COC(C)=O)CS[C@H]12)c1csc(N)n1 — MIC (AmpC-overproducing clinical isolate; alone without inhibitor, third isolate): 4 mg/L
CC[C@H](C)[C@H](NC(=O)[C@H](CCCNC(=N)N)NC(=O)[C@H](CCCNC(=N)N)NC(=O)[C@@H]1CCCN1C(=O)[C@@H]1CCCN1C(=O)[C@H](CCCNC(=N)N)NC(=O)[C@@H]1CCCN1C(=O)[C@H](CCCNC(=N)N)NC(=O)[C@@H]1CCCN1C(=O)[C@H](CC(C)C)NC(=O)[C@H](Cc1ccc(O)cc1)NC(=O)[C@@H]1CCCN1C(=O)[C@@H]1CCCN1C(=O)[C@H](CCCCN)NC(=O)[C@H](CC(=O)O)NC(=O)[C@@H](N)C(C)C)C(=O)N[C@@H](Cc1ccc(O)cc1)C(=O)N[C@@H](CC(N)=O)C(=O)N[C@@H](CCCNC(=N)N)C(N)=O — MIC (alamarBlue; SQ110; overnight, 37 °C): 25 µM

A few entries again:
CC[C@H](C)[C@H](NC(=O)[C@H](C)NC(=O)[C@H](CCCNC(=N)N)NC(=O)CNC(=O)[C@H](C)NC(=O)[C@H](CCC(=O)O)NC(=O)CNC(=O)[C@H](CC(=O)O)NC(=O)[C@H](Cc1ccc(O)cc1)NC(=O)[C@H](Cc1ccccc1)NC(=O)CNC(=O)[C@H](CCCCN)NC(=O)[C@H](CCCNC(=N)N)NC(=O)[C@H](CC(C)C)NC(=O)[C@H](CO)NC(=O)[C@H](CO)NC(=O)[C@H](Cc1c[nH]c2ccccc12)NC(=O)[C@H](Cc1ccccc1)NC(=O)[C@H](CC(N)=O)NC(=O)[C@H](CCCCN)NC(=O)[C@H](Cc1c[nH]c2ccccc12)NC(=O)[C@H](C)NC(=O)CN)C(=O)N[C@@H](CCCNC(=N)N)C(=O)N[C@@H](CCCNC(=N)N)C(=O)O — MIC (broth microdilution; K12; 37 °C): > 38.9 µM
CC[C@H](C)[C@H](NC(=O)[C@H](Cc1c[nH]c2ccccc12)NC(=O)[C@@H](N)CCCNC(=N)N)C(=O)N[C@@H](CCCNC(=N)N)C(=O)N[C@@H](Cc1c[nH]c2ccccc12)C(=O)N[C@H](C(=O)N[C@@H](Cc1c[nH]c2ccccc12)C(=O)N[C@@H](CCCNC(=N)N)C(=O)N[C@@H](CCCCN)C(=O)N[C@@H](CCCCN)C(=O)N[C@@H](CC(C)C)C(=O)N[C@@H](CCCNC(=N)N)C(N)=O)C(C)C — MIC (broth microdilution; ATCC 25922, LB medium; 16 to 20 h, 37 °C): 25 to 50 mg/L
